# Measured values pooled from the literature.
# Numbered parts are unrelated; each lists some results of a single study.

# Sample 1
# Target: RNA binding protein fox-1 homolog 2, RRM domain, GST-SBP tag (RBFOX2, Homo sapiens, UniProt O43251-10, residues 100-194)
# Method: RNA Bind-n-Seq
# Form: RNA
# Matrix: in vitro
# Tested at: 365 nM
# Notes: natural RNA segment, single round, ends assumed
# Baseline: no-protein control
# Direction: higher = stronger binding
# Target sequence (chain): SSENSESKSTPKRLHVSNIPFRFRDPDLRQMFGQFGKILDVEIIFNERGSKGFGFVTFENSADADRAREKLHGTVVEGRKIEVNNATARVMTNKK
Oligonucleotide,RBNS enrichment (R)
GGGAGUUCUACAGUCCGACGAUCAGUCACUCAUGACUGGAGGAAACAGGCUUCCUCCACAAAAGUCUCUCUAUAAAAUAUAUAAAACACCAUUUCUUGUAACUUGCCCUUAACAUCCCAAAGCAUUCCACCAAUGGAAUUCUCGGGUGCCAA,0.884
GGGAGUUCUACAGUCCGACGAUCGGUGAGGGUCAGAGAAAGUUCUGGUGCUUUUCCUGUGCUCUAAGAGCUGAGAGCCAGAAAUGCAGAUUCAAUUUGGAAGGAGAUGGGAUAGCUGAAGAACUUACCACGUCUGGAAUUCUCGGGUGCCAA,0.747
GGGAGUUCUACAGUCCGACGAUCGUAUAAAAGACAAGGUGCCCAAGGUCACAAGAACACCUCAUUGCCGACUGAAGCCAGUGUCAGGGCACCACAUACUCCUGGGGCCAGUCUACAGGAAAGAGAUGUUCUGCUGGAAUUCUCGGGUGCCAA,0.657
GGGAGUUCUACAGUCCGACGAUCUUUCUGCAAUUCCUUUGGGCGAUUUCUGAAAGUUGCCACCCACGUACUCACAGAUCCACUGCCCGCCUCUCCUCCCCUCAUGUUCCAGGACUCACCACCGUGGUCAGACCUGGAAUUCUCGGGUGCCAA,0.322
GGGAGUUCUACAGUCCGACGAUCGCUGAUUUGAUGAUUGAAAUGUGAAAGUGAAGUGGAAGGAAUGAAUGAAGUGUGUUUUUUUUUUCUUUUUUGAGGAAUUAUCAGGGAAGUGAGGAAAUGUUUGGGAGAGGUGGAAUUCUCGGGUGCCAA,4.06
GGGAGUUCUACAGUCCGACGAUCCCCGACUACCCUAUUUAUUAUUGUAGCUAUUUAUUUAUUUAUUGAGGAUGUGCCCCGAGCGCACCCCCUUCCCACCCUGUACAUAGCUCCACCCAGCUCGGCCGUGGUGUUGGAAUUCUCGGGUGCCAA,0.594
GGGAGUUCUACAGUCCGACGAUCAUGUUAUUGGUGUCUUCACUGGAUGUAUUUGACUGCUGUGGACUUGAGUUGGGAGGGGAAUGUUCCCACUCAGAUCCUGACAGGGAAGAGGAGGAGAUGAGAGACUCUGGUGGAAUUCUCGGGUGCCAA,6.36
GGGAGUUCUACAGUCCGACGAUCGAAAGUGAAAAGUUAAGACCGUUCACAAGAAUUACACCCACACGCUGCCUGUCACAGCCUGUGAGGGAACGCAGAACACCUGGCUGGGUCCCACGGGUGACCCUCUCAUUUGGAAUUCUCGGGUGCCAA,0.214

# Sample 2
# Target: Sal-like protein 4, full length isoform B (SALL4, Homo sapiens, UniProt Q9UJQ4-2, residues 1-616)
# Method: universal PBM
# Form: double-stranded DNA, one strand shown
# Matrix: in vitro
# Tested at: not given
# Notes: 8-mer, flanks averaged, mean of replicates
# Direction: higher = stronger binding
Oligonucleotide,E-score
GGGAGGCA,-0.225
AGCGTAGG,-0.127
CACCTTGA,-0.0895
CGAACCCA,-0.178
ATCCGGAC,-0.259
GTATTCGA,-0.0702
TAGAGAAA,0.0302
ATACAAGG,0.162
CCTCAAGA,0.0699
ACAAACCT,0.0876
GACATAAC,0.198
ATCGTGGG,-0.0272
AGGTTCTC,-0.16
ATTAACCG,0.0787
ATAATGCC,0.0922
GTACGTCA,0.0364
GTGCATCA,0.0892
CTAATTTC,0.218
GCTGAAGA,-0.0887
AGTTGCAT,0.109
ATGTCGCC,0.0438

# Sample 3
# Target: Prothrombin, mature alpha-thrombin (F2, Homo sapiens, UniProt P00734)
# Method: aptamer microarray, sandwich
# Form: DNA with 2'F-ANA
# Matrix: in vitro
# Tested at: 200 nM
# Notes: whole 15-mer aptamer, many near background
# With: Cy3 exosite-II aptamer, 400 nM
# Direction: higher = stronger binding
# Oligonucleotide: GGTTGGTGTGGTTGG
Modification,mean fluorescence intensity [a.u.]
2'F-ANA at 1 2 6 7 9 10 11 13 14,51.3
2'F-ANA at 2 4 6 7 8 9 10 11 12 15,97
2'F-ANA at 1 4 7 8 9 10 11 15,50.2
2'F-ANA at 1 4 5 6 8 9 12 13 14,49.3
2'F-ANA at 2 3 5 6 7 8 15,133
2'F-ANA at 4 6 7 9 10 11 13 15,68.2
2'F-ANA at 6 8 9 10 12,170
2'F-ANA at 5 7 8 9 14,52.5
2'F-ANA at 1 4 6 7 10 14,45.1
2'F-ANA at 1 2 6 7 11 14 15,73.2
2'F-ANA at 2 3 4 10 11 12 14 15,191
2'F-ANA at 3 7 8 9 14 15,724
2'F-ANA at 1 8 9 11 12 15,287
2'F-ANA at 11 12,804
2'F-ANA at 1 3 4 5 8 9 11,58.7
2'F-ANA at 1 4 5 6 9 10 12 13,48.5
2'F-ANA at 2 3 4 7 11 14 15,335
2'F-ANA at 1 3 4 5 6 7 9 10 11 12,50.6
2'F-ANA at 2 4 5 6 9 10 11 12 13 14 15,51.1
2'F-ANA at 2 3 4 6 9 10 11 12 13 14 15,140
2'F-ANA at 3 4 6 10 11 12 15,271

# Sample 4
# Target: Histone acetyltransferase KAT6A, both winged helices, GST fusion (KAT6A, Homo sapiens, UniProt Q92794, residues 1-181)
# Method: protein binding microarray
# Form: double-stranded DNA, one strand shown
# Matrix: in vitro
# Tested at: not given
# Notes: 8-mer, flanks averaged, mean of 2 arrays, mostly near background
# Baseline: not given
# Direction: higher = stronger binding
# Target sequence (chain): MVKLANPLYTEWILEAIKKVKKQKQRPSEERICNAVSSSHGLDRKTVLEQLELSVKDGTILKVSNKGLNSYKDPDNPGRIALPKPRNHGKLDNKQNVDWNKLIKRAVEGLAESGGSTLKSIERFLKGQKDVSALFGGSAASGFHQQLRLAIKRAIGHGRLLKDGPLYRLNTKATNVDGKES
Oligonucleotide,E-score
GAGACTCC,-0.0294
GGCTGGAC,-0.0283
GAGTCATA,-0.0834
ACCGGGGC,0.0524
GCTGAGGA,0.0155
ACACAATA,-0.145
GGGAAAAA,-0.0147
AGTAGTAT,-0.0596
AGGTCGGG,0.0398
AAGATGGT,-0.144
GTCCGCAA,0.225
AAAGAGTG,-0.145
AGTAAACC,-0.0123
CATGCTGG,-0.221
AGAATAAC,-0.0494
AGGTGATA,-0.162
CCGATCGG,0.261
AAAAATTA,0.0235
CTCGCGGA,0.182
CCCATGCA,-0.157
GCTTTAAC,-0.0175
AGACCGCC,0.162
TCCAGGGA,-0.122
CATCGCCG,0.297

# For quick reference, copied from above (sample 3):
Modification,mean fluorescence intensity [a.u.]
2'F-ANA at 1 8 9 11 12 15,287
2'F-ANA at 2 4 6 7 8 9 10 11 12 15,97
2'F-ANA at 2 3 4 10 11 12 14 15,191
2'F-ANA at 1 2 6 7 11 14 15,73.2
2'F-ANA at 1 4 5 6 8 9 12 13 14,49.3
